Measurements collected from several papers.
Each numbered part is a random draw from the data of one study; scales do not carry over between parts.

Sample 1
Target: Interferon regulatory factor 5, full length, phosphomimetic (IRF5, Homo sapiens, UniProt Q13568-2, residues 1-514, S451D/S453D/S456D/S462D)
Method: protein-binding microarray
Molecule type: double-stranded DNA, one strand shown
Medium: in vitro
Tested at: 940 nM top
Notes: 60-bp whole probe
With: salmon DNA 0.4 mg/ml
Reference: random background probes
Reading: higher = stronger binding
All sequences stand within: GCCTAGCAC … GTGCTAGGTCTTGATTCGCTTGACGCTGCTG
| Sequence | fitted relative affinity |
| --- | --- |
| TCTGTCCTGATAGCCCTGGC | -0.297 z-score |
| TTAGATATCAGTTTCCATTA | 1.38 z-score |
| TTAGATATCACACTGGATTA | -0.269 z-score |
| GACGGTATCGGAGTGGGGAC | 2.03 z-score |
| TTAGATTTCAGATCCGATTA | 0.0266 z-score |
| GACGGTTTCGGACTTGGGAC | 5.18 z-score |

Sample 2
Target: Histone acetyltransferase KAT6A, both winged helices, GST fusion (KAT6A, Homo sapiens, UniProt Q92794, residues 1-181)
Method: protein binding microarray
Molecule type: double-stranded DNA, one strand shown
Medium: in vitro
Tested at: not given
Notes: 8-mer, flanks averaged, mean of 2 arrays, mostly near background
Reference: not given
Reading: higher = stronger binding
Target sequence (chain): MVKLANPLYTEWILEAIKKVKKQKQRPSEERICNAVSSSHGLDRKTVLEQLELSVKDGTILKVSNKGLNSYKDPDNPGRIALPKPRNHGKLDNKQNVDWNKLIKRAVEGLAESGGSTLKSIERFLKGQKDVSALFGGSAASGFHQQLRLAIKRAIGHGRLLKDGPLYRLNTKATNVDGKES
| Sequence | E-score |
| --- | --- |
| AGTGTATG | 0.0572 |
| GAACACGA | -0.0713 |
| CGCATTCA | 0.155 |
| ACGTCATC | 0.00704 |
| AGAAGGGC | 0.0129 |
| CACTATAG | -0.146 |
| CCGGGCCG | 0.305 |

Sample 3
Target: Prothrombin, mature alpha-thrombin (F2, Homo sapiens, UniProt P00734)
Method: aptamer microarray, sandwich
Molecule type: DNA with 2'F-ANA
Medium: in vitro
Tested at: 200 nM
Notes: whole 15-mer aptamer, many near background
With: Cy3 exosite-II aptamer, 400 nM
Reading: higher = stronger binding
Sequence: GGTTGGTGTGGTTGG
| Modification | mean fluorescence intensity |
| --- | --- |
| 2'F-ANA at 1 4 7 10 12 15 | 124 a.u. |
| 2'F-ANA at 1 2 3 4 5 6 7 9 15 | 62.9 a.u. |
| 2'F-ANA at 2 4 8 10 11 14 | 60.8 a.u. |
| 2'F-ANA at 3 5 8 9 10 12 14 15 | 53.3 a.u. |
| 2'F-ANA at 3 9 10 12 13 15 | 561 a.u. |
| 2'F-ANA at 2 3 4 5 6 10 12 13 14 15 | 55.2 a.u. |
| 2'F-ANA at 2 3 5 6 8 9 10 12 13 15 | 54.4 a.u. |

Further values, each from its own experiment
| Substance | target | assay | test system | setting | scale | measurement | value |
| --- | --- | --- | --- | --- | --- | --- | --- |
| PhoQ, residues 284 288 289 292 302 303 HSYLQF | PhoP, residues 12 14 15 18 19 LHTVM (Escherichia coli, UniProt P23836) | Sort-seq, refers to: YFP reporter | E. coli | PhoQ-PhoP variant library, with: 10 µM Mg2+ | reference: high Mg2+ state, higher = stronger signaling | fold induction | 11.1 |

Some of these lines once more (sample 2):
| Sequence | E-score |
| --- | --- |
| AGTGTATG | 0.0572 |
| GAACACGA | -0.0713 |
